Results collected from several papers.
Compare with care: the assays were run in different laboratories. Numbers after ± are the reported error.
XDH: Xanthine dehydrogenase/oxidase (XDH, Bos taurus, UniProt P80457)
UniProt P80457, sequence (whole entry, looked up): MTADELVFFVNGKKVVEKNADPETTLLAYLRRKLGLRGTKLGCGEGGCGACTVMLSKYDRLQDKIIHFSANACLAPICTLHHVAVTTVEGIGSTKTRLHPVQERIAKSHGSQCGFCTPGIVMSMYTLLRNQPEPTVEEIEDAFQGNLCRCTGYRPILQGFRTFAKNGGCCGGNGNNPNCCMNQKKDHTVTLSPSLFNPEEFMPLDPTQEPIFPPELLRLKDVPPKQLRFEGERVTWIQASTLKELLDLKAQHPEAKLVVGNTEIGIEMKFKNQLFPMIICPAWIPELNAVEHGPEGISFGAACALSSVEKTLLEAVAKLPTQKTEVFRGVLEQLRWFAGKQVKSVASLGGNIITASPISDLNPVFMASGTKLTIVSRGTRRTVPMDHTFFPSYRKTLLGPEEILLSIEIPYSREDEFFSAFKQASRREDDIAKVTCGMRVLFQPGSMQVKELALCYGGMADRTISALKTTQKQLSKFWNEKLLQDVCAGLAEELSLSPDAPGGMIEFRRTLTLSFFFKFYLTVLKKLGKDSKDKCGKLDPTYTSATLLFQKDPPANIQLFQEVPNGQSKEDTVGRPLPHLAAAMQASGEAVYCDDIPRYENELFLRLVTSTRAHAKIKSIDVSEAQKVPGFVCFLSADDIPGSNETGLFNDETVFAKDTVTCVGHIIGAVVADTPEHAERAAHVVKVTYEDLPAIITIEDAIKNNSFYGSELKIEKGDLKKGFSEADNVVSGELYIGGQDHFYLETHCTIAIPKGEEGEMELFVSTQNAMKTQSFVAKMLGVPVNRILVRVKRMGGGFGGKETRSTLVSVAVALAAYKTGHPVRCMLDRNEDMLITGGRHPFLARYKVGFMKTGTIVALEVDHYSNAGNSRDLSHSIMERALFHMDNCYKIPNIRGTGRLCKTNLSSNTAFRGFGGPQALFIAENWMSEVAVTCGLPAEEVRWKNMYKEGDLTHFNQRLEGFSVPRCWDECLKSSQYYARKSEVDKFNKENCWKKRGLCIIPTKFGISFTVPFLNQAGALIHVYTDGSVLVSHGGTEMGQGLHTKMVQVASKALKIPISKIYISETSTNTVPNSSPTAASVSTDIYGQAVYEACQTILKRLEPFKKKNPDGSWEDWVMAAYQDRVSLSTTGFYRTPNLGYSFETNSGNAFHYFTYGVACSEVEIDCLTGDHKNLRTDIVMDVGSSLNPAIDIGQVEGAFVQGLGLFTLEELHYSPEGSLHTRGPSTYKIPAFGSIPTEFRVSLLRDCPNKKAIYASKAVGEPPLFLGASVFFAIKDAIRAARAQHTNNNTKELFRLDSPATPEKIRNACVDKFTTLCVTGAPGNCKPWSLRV
BACE2: Beta-secretase 2 (BACE2, Homo sapiens, UniProt Q9Y5Z0)
UniProt Q9Y5Z0, sequence (whole entry, looked up): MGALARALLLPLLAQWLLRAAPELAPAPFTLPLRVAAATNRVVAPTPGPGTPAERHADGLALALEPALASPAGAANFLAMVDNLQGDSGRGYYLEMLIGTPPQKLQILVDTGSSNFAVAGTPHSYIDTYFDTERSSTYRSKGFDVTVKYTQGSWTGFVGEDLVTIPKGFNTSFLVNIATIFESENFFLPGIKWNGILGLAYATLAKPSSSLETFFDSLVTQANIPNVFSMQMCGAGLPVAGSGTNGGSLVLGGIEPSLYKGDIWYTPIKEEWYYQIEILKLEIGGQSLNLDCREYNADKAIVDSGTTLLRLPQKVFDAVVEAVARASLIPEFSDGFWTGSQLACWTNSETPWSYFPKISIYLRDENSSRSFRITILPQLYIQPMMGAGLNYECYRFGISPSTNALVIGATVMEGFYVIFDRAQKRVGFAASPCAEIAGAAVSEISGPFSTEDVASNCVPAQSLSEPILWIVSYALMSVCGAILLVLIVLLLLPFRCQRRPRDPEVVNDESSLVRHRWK
CASP1: Caspase-1 (CASP1, Homo sapiens, UniProt P29466)
UniProt P29466, sequence (whole entry, looked up): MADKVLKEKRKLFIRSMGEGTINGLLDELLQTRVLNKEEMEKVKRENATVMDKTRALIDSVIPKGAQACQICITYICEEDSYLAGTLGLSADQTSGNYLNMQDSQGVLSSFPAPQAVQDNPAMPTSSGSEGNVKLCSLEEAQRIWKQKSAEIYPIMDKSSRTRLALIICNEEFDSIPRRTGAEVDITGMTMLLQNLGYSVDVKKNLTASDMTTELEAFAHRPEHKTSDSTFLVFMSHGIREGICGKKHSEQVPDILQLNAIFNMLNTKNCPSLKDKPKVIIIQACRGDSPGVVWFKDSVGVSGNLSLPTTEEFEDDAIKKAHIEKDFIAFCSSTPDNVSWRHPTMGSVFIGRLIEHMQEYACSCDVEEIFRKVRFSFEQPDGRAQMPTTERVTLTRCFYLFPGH
5-hydroxytryptamine receptor 2A: 5-hydroxytryptamine receptor 2A (Rattus norvegicus, UniProt P14842)
UniProt P14842, sequence (whole entry, looked up): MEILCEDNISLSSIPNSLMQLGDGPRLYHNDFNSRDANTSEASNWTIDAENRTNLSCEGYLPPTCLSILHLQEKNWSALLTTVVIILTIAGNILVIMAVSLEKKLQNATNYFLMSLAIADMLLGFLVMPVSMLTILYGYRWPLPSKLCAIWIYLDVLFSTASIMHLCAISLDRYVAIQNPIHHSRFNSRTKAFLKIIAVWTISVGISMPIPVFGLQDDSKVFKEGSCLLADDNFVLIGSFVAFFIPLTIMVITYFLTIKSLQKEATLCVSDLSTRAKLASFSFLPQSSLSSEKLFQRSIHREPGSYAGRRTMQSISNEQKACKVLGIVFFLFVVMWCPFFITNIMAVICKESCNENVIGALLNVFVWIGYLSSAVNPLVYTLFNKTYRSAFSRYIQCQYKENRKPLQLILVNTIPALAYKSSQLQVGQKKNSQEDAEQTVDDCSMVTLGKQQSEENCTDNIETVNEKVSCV
Beta-lactamase CTX-M-14: Beta-lactamase CTX-M-14 (Escherichia coli, UniProt Q9L5C7)
FUT9: 4-galactosyl-N-acetylglucosaminide 3-alpha-L-fucosyltransferase 9 (FUT9, Homo sapiens, UniProt Q9Y231)
UniProt Q9Y231, sequence (whole entry, looked up): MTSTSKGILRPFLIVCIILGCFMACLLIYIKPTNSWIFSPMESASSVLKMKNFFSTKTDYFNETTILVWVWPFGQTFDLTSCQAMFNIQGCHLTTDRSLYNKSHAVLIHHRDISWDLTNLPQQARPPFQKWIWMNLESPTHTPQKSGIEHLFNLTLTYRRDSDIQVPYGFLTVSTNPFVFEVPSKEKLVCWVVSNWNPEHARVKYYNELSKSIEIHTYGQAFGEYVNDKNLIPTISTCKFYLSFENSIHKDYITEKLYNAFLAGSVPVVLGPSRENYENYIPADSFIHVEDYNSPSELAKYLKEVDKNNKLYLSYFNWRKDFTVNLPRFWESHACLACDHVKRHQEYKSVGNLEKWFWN
TACR1: Substance-P receptor (TACR1, Homo sapiens, UniProt P25103)
Hypoxanthine-guanine-xanthine phosphoribosyltransferase: Hypoxanthine-guanine-xanthine phosphoribosyltransferase (Plasmodium falciparum, UniProt P20035)
UniProt P20035, sequence (whole entry, looked up): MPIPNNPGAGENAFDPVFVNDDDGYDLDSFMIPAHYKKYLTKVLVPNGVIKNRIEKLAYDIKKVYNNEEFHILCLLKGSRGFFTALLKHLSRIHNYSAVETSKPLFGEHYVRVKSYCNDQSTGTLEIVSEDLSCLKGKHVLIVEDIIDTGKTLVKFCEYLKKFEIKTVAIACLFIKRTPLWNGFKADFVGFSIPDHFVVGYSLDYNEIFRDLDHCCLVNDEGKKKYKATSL
SLC10A1: Hepatic sodium/bile acid cotransporter (SLC10A1, Homo sapiens, UniProt Q14973)
UniProt Q14973, sequence (whole entry, looked up): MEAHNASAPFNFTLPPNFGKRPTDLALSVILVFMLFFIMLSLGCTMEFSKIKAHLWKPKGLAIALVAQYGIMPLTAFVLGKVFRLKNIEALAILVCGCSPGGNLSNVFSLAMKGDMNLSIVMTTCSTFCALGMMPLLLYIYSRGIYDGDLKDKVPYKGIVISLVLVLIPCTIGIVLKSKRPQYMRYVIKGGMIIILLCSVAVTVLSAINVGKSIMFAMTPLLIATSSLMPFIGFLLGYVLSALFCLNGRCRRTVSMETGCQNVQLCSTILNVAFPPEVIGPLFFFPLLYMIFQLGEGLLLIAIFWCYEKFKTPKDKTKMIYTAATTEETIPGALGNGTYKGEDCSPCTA
CHRM4: Muscarinic acetylcholine receptor M4 (CHRM4, Homo sapiens, UniProt P08173)
UniProt P08173, sequence (whole entry, looked up): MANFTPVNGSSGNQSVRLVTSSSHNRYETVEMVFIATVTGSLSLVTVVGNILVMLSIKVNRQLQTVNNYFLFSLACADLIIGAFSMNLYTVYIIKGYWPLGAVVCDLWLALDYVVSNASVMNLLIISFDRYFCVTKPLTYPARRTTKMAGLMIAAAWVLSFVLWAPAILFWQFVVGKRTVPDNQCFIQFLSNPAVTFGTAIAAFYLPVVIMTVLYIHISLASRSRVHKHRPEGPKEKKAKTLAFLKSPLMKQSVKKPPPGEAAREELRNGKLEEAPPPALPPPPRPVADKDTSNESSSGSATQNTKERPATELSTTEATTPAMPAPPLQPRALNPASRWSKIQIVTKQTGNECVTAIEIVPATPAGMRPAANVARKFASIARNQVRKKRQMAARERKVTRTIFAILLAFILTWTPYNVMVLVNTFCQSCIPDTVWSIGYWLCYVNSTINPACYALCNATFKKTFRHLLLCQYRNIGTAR
MAPK8: Mitogen-activated protein kinase 8 (MAPK8, Homo sapiens, UniProt P45983)
FUT6: 4-galactosyl-N-acetylglucosaminide 3-alpha-L-fucosyltransferase FUT6 (FUT6, Homo sapiens, UniProt P51993)
UniProt P51993, sequence (whole entry, looked up): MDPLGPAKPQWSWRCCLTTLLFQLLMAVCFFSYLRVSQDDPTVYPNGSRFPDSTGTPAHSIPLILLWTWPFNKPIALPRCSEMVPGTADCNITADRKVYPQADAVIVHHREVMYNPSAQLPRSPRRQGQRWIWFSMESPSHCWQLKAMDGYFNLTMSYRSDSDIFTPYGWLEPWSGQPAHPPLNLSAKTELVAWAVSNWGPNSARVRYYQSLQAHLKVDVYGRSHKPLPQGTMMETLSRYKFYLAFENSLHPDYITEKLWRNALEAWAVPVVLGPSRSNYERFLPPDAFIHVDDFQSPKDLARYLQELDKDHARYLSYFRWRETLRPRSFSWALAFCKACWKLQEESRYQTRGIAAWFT
Htr1a: 5-hydroxytryptamine receptor 1A (Htr1a, Rattus norvegicus, UniProt P19327)
UniProt P19327, sequence (whole entry, looked up): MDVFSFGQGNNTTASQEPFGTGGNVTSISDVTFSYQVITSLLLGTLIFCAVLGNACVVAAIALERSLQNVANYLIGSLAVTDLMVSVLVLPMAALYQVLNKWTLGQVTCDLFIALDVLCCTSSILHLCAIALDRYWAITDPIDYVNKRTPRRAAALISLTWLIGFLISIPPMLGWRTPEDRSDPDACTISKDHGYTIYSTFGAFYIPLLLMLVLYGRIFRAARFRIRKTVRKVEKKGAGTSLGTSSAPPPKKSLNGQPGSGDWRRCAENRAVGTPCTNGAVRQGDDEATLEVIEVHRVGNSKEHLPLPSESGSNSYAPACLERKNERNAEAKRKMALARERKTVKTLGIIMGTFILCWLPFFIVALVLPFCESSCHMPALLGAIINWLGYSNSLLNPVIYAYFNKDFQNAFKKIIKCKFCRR

OCC1OC(Oc2ccc(C=Cc3cc(O)cc(O)c3)cc2)C(O)C(O)C1O (stereo not drawn)
Ki (XDH; uric acid formation, inhibitor; pH 10.0, 25 °C, added: xanthine): 7000 ± 800 nM

Cc1cc(C(=O)N[C@@H](Cc2ccccc2)[C@H](O)CN[C@H](C(=O)NCC(C)C)[C@H](C)O)cc(C(=O)N[C@H](C)c2ccccc2)c1
Ki (BACE2): 183 ± 22.7 nM

CC(=O)NCC(=O)N[C@@H](CCC(=O)O)C(=O)N[C@@H](CO)C(=O)N1CCC[C@H]1C(=O)N[C@H](C=O)CC(=O)O
Ki (CASP1; enzyme activity, inhibitor, fluorescence; pH 7): 302 nM

Cc1cc(OCCCN2CCN(c3cccc4sccc34)CC2)ccc1CN1CCCCC1
Ki (5-hydroxytryptamine receptor 2A; cell-free assay): 286 nM

O=C(Nc1cccc(-c2nn[nH]n2)c1)c1cc(-n2ccnn2)cc(C(F)(F)F)c1
Ki (Beta-lactamase CTX-M-14; enzyme activity, inhibitor, absorbance; pH 7): 32700 nM

Nc1nc2c(ncn2[C@@H]2O[C@H](COP(=O)(O)OP(=O)(O)O[C@H]3O[C@@H](CNC(=O)CCCc4ccccc4)[C@@H](O)[C@@H](O)[C@@H]3F)[C@@H](O)[C@H]2O)c(=O)[nH]1
Ki (FUT9; enzyme activity, inhibitor): 14200 nM

CN(C)CCNC(=O)c1cccc2c(NCCCCc3c(N)nc(N)nc3N)c3ccccc3nc12
Ki (Muscleblind-like protein 1, with cTNT RNA (Homo sapiens, UniProt Q9NR56); MBNL1-RNA binding, gel mobility shift; no tRNA, added: cTNT RNA, 15 nM MBNL1): > 17000 nM

Cc1ccccc1-c1cc(N2CCN(Cc3ccccc3)CC2)ccc1N(C)C(=O)C(C)(C)c1cc(C(F)(F)F)cc(C(F)(F)F)c1
Ki (TACR1; cell-free assay; pH 6): 4.4 nM

O=C(Nc1cccc(-c2nn[nH]n2)c1)c1cc(-c2ncc[nH]2)cc(C(F)(F)F)c1
Ki (Beta-lactamase CTX-M-14; enzyme activity, inhibitor, absorbance; pH 7): 16900 nM

O=c1[nH]cnc2c(CN[C@@H](CO)CCP(=O)(O)O)c[nH]c12
Ki (Hypoxanthine-guanine-xanthine phosphoribosyltransferase; enzyme activity, inhibitor; pH 7.4): 23 nM

C[C@H](CCC(=O)O)[C@H]1CC[C@H]2[C@@H]3[C@@H](OC(=O)c4ccccc4)C[C@H]4C[C@H](O)CC[C@]4(C)[C@H]3CC[C@]12C
Ki (SLC10A1; transporter uptake, inhibitor, radiometric): 24400 nM

COc1ccc(/C=C/c2cc(O)cc(O)c2)cc1O
Ki (XDH; superoxide generation, inhibitor; pH 10.0, 25 °C, added: xanthine): 2400 ± 200 nM

CCC(=O)NC1CN(CCCCC2CCN(CC(=O)N3c4ccccc4NC(=O)c4ccccc43)CC2)CCN(CCCOc2nsnc2C2=CCCN(C)C2)C1 (stereo not drawn)
Ki (CHRM4; ligand displacement, radioligand): 5.75 nM

CNC1CCC(N(Cc2cccc(-c3ccncc3)c2)C(=O)c2sc3ccccc3c2Cl)CC1 (stereo not drawn)
Ki (Protein smoothened (Smo, Mus musculus, UniProt P56726); ligand displacement, radioligand; cell membranes): 8.4 nM

COC(=O)C1(C)C=C(C(=O)O)C(=O)CC1 (stereo not drawn)
Ki (MAPK8; ligand displacement, FP): > 200000 nM

CCCCCCCCCCN1C(=O)/C(=N\NC(=N)N)c2cc(C)ccc21
Ki (mrcB (Escherichia coli K-12, UniProt P02919); transglycosylation activity, inhibitor; added: dansyl-lipid II): 2400 nM

Clc1cc(OCCCN2CCN(c3cccc4sccc34)CC2)ccc1CN1CCOCC1
Ki (5-hydroxytryptamine receptor 2A; cell-free assay): 157 nM

NCc1cc(C(=O)NCCN2CCN(CCCCC3CCN(CCCN4C(=O)CCc5ccccc54)CC3)CC2)cc(C(=O)NCCN2CCN(CCCCC3CCN(CC(=O)N4c5ccccc5NC(=O)c5ccccc54)CC3)CC2)c1
Ki (CHRM4; ligand displacement, radioligand): 4.07 nM

O=C(Nc1cccc(-c2nn[nH]n2)c1)c1cc(-c2ccncn2)cc(C(F)(F)F)c1
Ki (Beta-lactamase CTX-M-14; enzyme activity, inhibitor, absorbance; pH 7): 18900 nM

O=c1[nH]cnc2c(CN[C@H](CO)CC(F)P(=O)(O)O)c[nH]c12 (stereo partly drawn)
Ki (Hypoxanthine-guanine-xanthine phosphoribosyltransferase; enzyme activity, inhibitor; pH 7.4): 1.2 nM

COc1ccc(/C(C)=N/NC(=O)CSc2nc3ccccc3c(=O)n2CCc2ccc(S(N)(=O)=O)cc2)cc1
Ki (CA12 (Homo sapiens, UniProt O43570); enzyme activity, inhibitor, stopped-flow): 57.5 nM

CNc1ccccc1C(=O)O[C@H]1[C@@H](O)[C@H](n2ccc(N)nc2=O)O[C@@H]1COP(=O)(O)OP(=O)(O)O
Ki (Adcy2/ADCY5, C1/C2 domains (Rattus norvegicus, UniProt P26769+P30803); enzyme activity, inhibitor; added: 10 mM MnCl2, 100 µM forskolin, Gsα-GTPγS): 140 ± 22 nM

Cc1ccccc1-c1cc(N2CCN(CCCN3C(=O)C=CC3=O)CC2)ccc1N(C)C(=O)C(C)(C)c1cc(C(F)(F)F)cc(C(F)(F)F)c1
Ki (TACR1; binding): 2.29 nM

N=C(N)NCCC[C@H](NC(=O)[C@@H](N)Cc1ccccc1)C(=O)NCCOCCOCC(=O)NCC(=O)N1CCCCC1
Ki (FAP (Homo sapiens, UniProt Q12884); enzyme activity, inhibitor, fluorescence; pH 7.5): 264000 nM

C[C@H](CCC(=O)O)[C@H]1CC[C@H]2[C@@H]3[C@H](O)C[C@H]4C[C@H](OC(=O)CCC(=O)O)CC[C@]4(C)[C@H]3CC[C@]12C
Ki (SLC10A1; transporter uptake, inhibitor, radiometric): 10700 nM

CC[C@H](C)[C@H](NC(C)=O)C(=O)N[C@H](C(=O)N[C@H](C(=O)N[C@@H](CCCCNC(C)=O)C(=O)N[C@H](C=O)CC(=O)O)C(C)C)[C@@H](C)O
Ki (CASP1; enzyme activity, inhibitor, fluorescence; pH 7): 182 nM

COc1ccc2nc3cc(Cl)ccc3c(NCCCCc3c(N)nc(N)nc3N)c2c1
Ki (Muscleblind-like protein 1, with (CCUG)6 RNA (Homo sapiens, UniProt Q9NR56); MBNL1-RNA binding, gel mobility shift; 100 nM tRNA, added: (CCUG)6 RNA, 350 nM MBNL1): 3400 ± 900 nM

CCCCCCOc1ccc(C(=O)OCC[N+]2(C)CC=CCC2)cc1 (stereo not drawn)
Ki (CHRM4; ligand displacement, radioligand; cell membranes): 437 nM

CC(=O)NCC1OC(OP(=O)(O)OP(=O)(O)OCC2OC(n3cnc4c(=O)[nH]c(N)nc43)C(O)C2O)C(F)C(O)C1O (stereo not drawn)
Ki (FUT6; enzyme activity, inhibitor): 13500 nM

Cc1cc(C(=O)N[C@@H](Cc2ccccc2)[C@H](O)CN[C@H](C(=O)NCC(C)C)[C@H](C)O)cc(C(=O)N(C)[C@H](C)c2ccccc2)c1
Ki (BACE2): 1 ± 0.15 nM

CN(C)c1ccc(-n2cc(COC(=O)[C@]3(C)C=C(C(=O)OC(C)(C)C)C(=O)CC3)nn2)cc1
Ki (MAPK8; ligand displacement, FP): 2400 nM

c1cc(N2CCN(CCCOc3ccc(CN4CCCCC4)cc3)CC2)c2ccsc2c1
Ki (Htr1a; cell-free assay, radioligand): 210 nM

Nc1nc2c(ncn2[C@@H]2O[C@H](COP(=O)(O)OP(=O)(O)O[C@H]3O[C@@H](CNC(=O)C(c4ccccc4)c4ccccc4)[C@@H](O)[C@@H](O)[C@@H]3F)[C@@H](O)[C@H]2O)c(=O)[nH]1
Ki (FUT6; enzyme activity, inhibitor): 8000 nM

Cc1cc(CN2CCOCC2)ccc1OCCCN1CCN(c2cccc3sccc23)CC1
Ki (5-hydroxytryptamine receptor 2A; cell-free assay): 12.4 nM

CCCCCCCCCCCCCC[C@@H](O)[C@@H](O)[C@H](CO[C@H]1O[C@H](CO)[C@H](O)[C@H](O)[C@H]1O)NC(=O)CCCCCCCCCCc1ccc(OC)cc1
Ki (Cd1d1 (Mus musculus, UniProt P11609); competitive binding on microarray; added: surface-printed ligand): 660 ± 130 nM

O=C(O)c1cccc(-c2ccccc2O[C@@H]2O[C@H](CO)[C@H](O)[C@H](O)[C@H]2O)c1
Ki (Adhesin FmlH, lectin domain (Escherichia coli, UniProt Q1RBS0); inhibitor, competitive bio-layer interferometry; UPEC UTI89; added: immobilized Ser-TF): 2100 nM

Nc1nc2c(ncn2[C@@H]2O[C@H](COP(=O)(O)OP(=O)(O)O[C@H]3O[C@@H](CNC(=O)c4ccccc4)[C@@H](O)[C@@H](O)[C@@H]3F)[C@@H](O)[C@H]2O)c(=O)[nH]1
Ki (FUT9; enzyme activity, inhibitor): 28100 nM

Fc1cc(OCCCN2CCN(c3cccc4sccc34)CC2)ccc1CN1CCOCC1
Ki (Htr1a; cell-free assay, radioligand): 11.7 nM

O=C(Nc1cccc(-c2nn[nH]n2)c1)c1cc(-c2ccoc2)cc(C(F)(F)F)c1
Ki (Beta-lactamase CTX-M-14; enzyme activity, inhibitor, absorbance; pH 7): 17400 nM

Repeated from above:
COc1ccc2nc3cc(Cl)ccc3c(NCCCCc3c(N)nc(N)nc3N)c2c1
Ki (Muscleblind-like protein 1, with (CCUG)6 RNA (Homo sapiens, UniProt Q9NR56); MBNL1-RNA binding, gel mobility shift; 100 nM tRNA, added: (CCUG)6 RNA, 350 nM MBNL1): 3400 ± 900 nM

CCCCCCOc1ccc(C(=O)OCC[N+]2(C)CC=CCC2)cc1 (stereo not drawn)
Ki (CHRM4; ligand displacement, radioligand; cell membranes): 437 nM
